Experimental data gathered from unrelated publications.
Each numbered part is a random draw from the data of one study; scales do not carry over between parts. Positions count from the first letter of the parent shown.

Set 1
Target: PABPC1L2, full length, GST fusion (mouse, UniProt A0ABA7IW68)
Technique: RNAcompete
Molecule type: RNA
Medium: in vitro
Concentration: 20 nM
Notes: 7-mer, probes averaged, single round
Baseline: mean of 7-mers
Direction: higher = stronger binding
Residues (chain): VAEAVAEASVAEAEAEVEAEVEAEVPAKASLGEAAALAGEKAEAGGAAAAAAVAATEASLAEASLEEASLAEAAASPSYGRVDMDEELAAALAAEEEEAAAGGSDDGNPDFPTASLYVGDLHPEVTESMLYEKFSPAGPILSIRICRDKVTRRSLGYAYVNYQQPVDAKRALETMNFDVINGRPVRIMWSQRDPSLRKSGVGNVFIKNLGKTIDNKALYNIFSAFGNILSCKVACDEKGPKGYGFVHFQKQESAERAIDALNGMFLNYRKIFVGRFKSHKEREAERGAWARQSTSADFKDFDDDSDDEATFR
With `CUUAGAU` the 7-mer Z-score was -0.226.
For `GUGAUAU`, the 7-mer Z-score was -0.229.
`AACGUCA` gave a 7-mer Z-score of -0.0953.
The 7-mer Z-score of `CUUGGAU` is reported as -0.11.
With `GCACCUU` the 7-mer Z-score was -0.311.
For `GCCUUGA`, the 7-mer Z-score was -0.222.
`GGCGAUG` gave a 7-mer Z-score of 0.113.
With `CCCGCCU` the 7-mer Z-score was -0.494.
`UGGACCG` gave a 7-mer Z-score of 0.222.
`UCUCCUU` has a 7-mer Z-score of -0.407.
With `CAUAUCU` the 7-mer Z-score was -0.222.
`AAGUCUU` gave a 7-mer Z-score of -0.293.
`GCUCCCU` has a 7-mer Z-score of -0.237.
`GCAGUCC` has a 7-mer Z-score of -0.19.
The 7-mer Z-score of `GUGUGGC` is reported as -0.0826.
For `GCCAGGU`, the 7-mer Z-score was -0.15.
The 7-mer Z-score of `GGCGAGA` is reported as 0.349.
`GAUGUCC` gave a 7-mer Z-score of -0.275.
The 7-mer Z-score of `CCUAUGU` is reported as -0.436.
The 7-mer Z-score of `AGAGGUU` is reported as -0.199.
For `CGGCCAA`, the 7-mer Z-score was -0.0446.
`CUUUAGA` gave a 7-mer Z-score of 0.095.
`CGGUUAC` has a 7-mer Z-score of -0.0536.
`GCCUGUC` has a 7-mer Z-score of -0.376.
The 7-mer Z-score of `UUUCUGC` is reported as -0.325.

Set 2
Target: RING finger protein unkempt homolog, zinc fingers 1-6, GST-SBP tag (UNK, Homo sapiens, UniProt Q9C0B0, residues 30-357)
Technique: RNA Bind-n-Seq
Molecule type: RNA
Medium: in vitro
Concentration: not given
Notes: RNA with constant flanks, human-mouse chimeric sites, ends assumed
Baseline: input RNA pool
Direction: higher = stronger binding
Construct (chain): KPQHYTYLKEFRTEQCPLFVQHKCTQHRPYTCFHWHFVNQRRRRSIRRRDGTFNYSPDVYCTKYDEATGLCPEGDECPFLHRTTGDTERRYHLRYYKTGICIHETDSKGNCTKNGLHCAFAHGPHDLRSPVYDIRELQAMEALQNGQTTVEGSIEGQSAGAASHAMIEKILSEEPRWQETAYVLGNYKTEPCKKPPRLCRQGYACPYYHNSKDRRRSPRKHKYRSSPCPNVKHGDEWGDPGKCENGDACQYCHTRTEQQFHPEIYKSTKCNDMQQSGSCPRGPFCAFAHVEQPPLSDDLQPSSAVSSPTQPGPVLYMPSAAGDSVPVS
With `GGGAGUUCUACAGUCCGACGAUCUACUCAACUUUCUUUCCACAUUUUGAAUUCCAAGACAUUAUCCCUCCAGAUGACUUCCUAACGAGUGAUGAAGAGCAAGAUUUGGUUUUAUUUGGAACUAUGAGAGGACAAGUUGUUGGACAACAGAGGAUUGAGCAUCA` the bound/input enrichment was 0.185 ratio.
`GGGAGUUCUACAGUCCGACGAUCAUAAAGGCUAUGUUGAGUGGUCCAGGUCAGUUUGCUGAGAACGAAACCAACGAGGUCAAUUUUAGAGAGAUCCCCUCACAUGUGCUAUCAAAAGUGUGCAUGUAUUUUACCUACAAGGUCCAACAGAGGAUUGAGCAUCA` has a bound/input enrichment of 0.146 ratio.
`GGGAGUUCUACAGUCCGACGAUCAGAAAGCAAAACUUGGAAAGAUUUAAGAAAGGAGACGUAAGAUUCUUGAUUUGCACAGAUGUAGCUGCUAGAGGGAUUGAUAUCCAUGGUGUUCCUUAUGUGAUCAACGUCACCCUGCCUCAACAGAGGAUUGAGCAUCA` gave a bound/input enrichment of 0.322 ratio.
With `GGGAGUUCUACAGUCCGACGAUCAGUGUGCAGGAAUUCAUGACCUUUACAAGUCAACUGAUUGUGGAGCGCUCGGGGAAAGGCAGCAGAGCUUCUGUCAAAGAACAAGACUAUCUUUGCCAUGUCUACGUCCGGAGCGACAGUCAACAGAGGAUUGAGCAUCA` the bound/input enrichment was 0.143 ratio.
For `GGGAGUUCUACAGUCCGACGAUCGUACUGCAGCAGCAGGGAAAACUGCAGGAAGCACUGAUGCAUUAUAAGGAGGCUAUUCGAAUCAGUCCUACCUUUGCUGAUGCCUACUCUAAUAUGGGAAACACUCUAAAGGAGAUGCAGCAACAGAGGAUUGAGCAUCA`, the bound/input enrichment was 0.286 ratio.
`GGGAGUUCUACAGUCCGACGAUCGCUCUUGGGAAUGUAAUCAGCGCCUUGGGAGACAAGAGCAAGAGAGCCACCCAUGUCCCUUACAGAGAUUCCAAGCUGACAAGACUCUUGCAGGAUUCCCUUGGGGGUAACAGCCAAACCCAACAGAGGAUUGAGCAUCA` has a bound/input enrichment of 0.0885 ratio.
The bound/input enrichment of `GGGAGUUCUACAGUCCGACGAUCUUACCCGAGAACGAGGAUGAGCUGGAGAGCACCAACAGGCGCUACACCAAGAGGGACUGCAGCACUUUUCUCAGAACUAGUGAGACGGGCAUCGUGGAUCAGGUUAUGGUCACUCUCAACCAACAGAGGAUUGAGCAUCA` is reported as 0.203 ratio.
`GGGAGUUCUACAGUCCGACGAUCGUGUCCUGCUUUCAACUUAAAUCACUGAGGCAUCUCUACUGUUCUGUGAGCAUCAGGACUGUAGCGCUUGCCACCACCAUGAGAGUUCAGAAGCAGCCUUUCUGUGGAGAGUGAGAAUGACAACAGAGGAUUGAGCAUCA` gave a bound/input enrichment of 0.0921 ratio.

Set 3
Target: CEP164, C-terminal peptide (human)
Technique: DHFR complementation, deep sequencing
Medium: yeast
Notes: single substitutions, model-inferred values
Baseline: wild type
Direction: higher = weaker binding
Starting sequence: PDZK1, PDZ domain 2 (human); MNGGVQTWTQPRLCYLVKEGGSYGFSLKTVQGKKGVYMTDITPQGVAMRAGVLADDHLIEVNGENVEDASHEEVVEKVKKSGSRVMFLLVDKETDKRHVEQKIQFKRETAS; partner HNRVKVYRF
`F25Y`: “binding free energy change” 1.36 kcal/mol.
For `M1I`, “binding free energy change” read -0.028 kcal/mol.
Under “binding free energy change”, `I59W` is recorded as 0.551 kcal/mol.
For `A110F`, “binding free energy change” read -0.142 kcal/mol.
`K80S`: “binding free energy change” 0.502 kcal/mol.
For `L16H`, “binding free energy change” read 1.41 kcal/mol.
For `G32D`, “binding free energy change” read 0.0987 kcal/mol.
`E100Q`: “binding free energy change” -0.11 kcal/mol.
Under “binding free energy change”, `F25Q` is recorded as 1.36 kcal/mol.
Under “binding free energy change”, `Q10C` is recorded as 0.147 kcal/mol.
For `I41E`, “binding free energy change” read 1.1 kcal/mol.
`E72C`: “binding free energy change” 0.634 kcal/mol.
`L13Q` — result for “binding free energy change”: -0.0849 kcal/mol.
`Y37R`: “binding free energy change” 0.487 kcal/mol.
Under “binding free energy change”, `T42N` is recorded as 0.426 kcal/mol.
For `A54K`, “binding free energy change” read 0.119 kcal/mol.
Under “binding free energy change”, `S70V` is recorded as 0.119 kcal/mol.

Set 4
Target: CCND2, cyclin fold, Cln2 fusion (human)
Technique: yeast growth competition, sequencing
Medium: yeast
Notes: weak parent motif
Baseline: not given
Direction: higher = stronger binding
Starting sequence: LLGL2 docking peptide (human); KSLKKSLRQSFRR
`KSLAKSLRQSFRR [K4A]` — result for “normalised enrichment score”: -0.391.
Under “normalised enrichment score”, `KSLKKSLRQSARR [F11A]` is recorded as -0.242.
`KSLKKSLRQSFAR [R12A]` — result for “normalised enrichment score”: -0.296.
For `KALKKSLRQSFRR [S2A]`, “normalised enrichment score” read 0.0593.
Under “normalised enrichment score”, `KSAKKSLRQSFRR [L3A]` is recorded as -0.379.
`KSLKKSLRQSFRA [R13A]` — result for “normalised enrichment score”: 0.19.
For `KSLKASLRQSFRR [K5A]`, “normalised enrichment score” read -0.128.

Set 5
Target: ABI1, truncated, D143A, DHFR fusion (Arabidopsis thaliana)
Technique: DHFR PCA, deep sequencing
Medium: yeast
Notes: methotrexate growth selection, single substitutions
Together with: (+)-ABA 4.8 µM
Baseline: wild-type fitted maximum
Direction: higher = stronger binding
Starting sequence: PYL1, truncated, DHFR fusion (Arabidopsis thaliana); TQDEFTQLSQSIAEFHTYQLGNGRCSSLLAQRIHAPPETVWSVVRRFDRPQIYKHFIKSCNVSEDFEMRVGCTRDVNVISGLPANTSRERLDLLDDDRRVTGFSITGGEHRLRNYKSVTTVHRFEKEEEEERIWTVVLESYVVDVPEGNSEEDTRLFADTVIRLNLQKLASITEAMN; partner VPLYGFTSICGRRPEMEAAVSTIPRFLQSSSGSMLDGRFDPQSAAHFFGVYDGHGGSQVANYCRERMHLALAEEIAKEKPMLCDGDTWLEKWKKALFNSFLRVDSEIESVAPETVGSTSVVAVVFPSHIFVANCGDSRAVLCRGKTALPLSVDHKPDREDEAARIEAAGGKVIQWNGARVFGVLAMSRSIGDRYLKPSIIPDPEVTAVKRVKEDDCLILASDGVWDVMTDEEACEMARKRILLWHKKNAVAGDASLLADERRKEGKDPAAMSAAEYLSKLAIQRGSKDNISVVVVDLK
For `R132C`, “relative binding score” read 83.1%.
Under “relative binding score”, `D92K` is recorded as -19.7%.
`S150V`: “relative binding score” 14.7%.
For `E14L`, “relative binding score” read 37.8%.
Under “relative binding score”, `A13W` is recorded as 36.4%.
`K54M`: “relative binding score” 6.79%.
For `R45E`, “relative binding score” read -2.37%.
`C72Q` — result for “relative binding score”: 70.3%.
`E14I`: “relative binding score” 26.3%.
`T135S` — result for “relative binding score”: 67%.
`L82P`: “relative binding score” 26.1%.
For `V142D`, “relative binding score” read 18.3%.
`T154K` — result for “relative binding score”: 5.03%.
`E89M`: “relative binding score” 2.66%.
For `D3S`, “relative binding score” read 65.9%.
`H34R` — result for “relative binding score”: 65%.
`I57N` — result for “relative binding score”: -1.3%.
`S42M`: “relative binding score” 48.5%.

Mixed results
For `PhoQ, residues 284 288 289 292 302 303 WSHMKI`, the fold induction was 10.3 (PhoP, residues 12 14 15 18 19 VHSCL (Escherichia coli, UniProt P23836); Sort-seq, measured: YFP reporter; E. coli; PhoQ-PhoP variant library, together with: 10 µM Mg2+; baseline: high Mg2+ state, higher = stronger signaling).

Some of these lines once more (set 3):
For `A110F`, “binding free energy change” read -0.142 kcal/mol.
`K80S`: “binding free energy change” 0.502 kcal/mol.
For `L16H`, “binding free energy change” read 1.41 kcal/mol.
For `G32D`, “binding free energy change” read 0.0987 kcal/mol.
`E100Q`: “binding free energy change” -0.11 kcal/mol.
Under “binding free energy change”, `F25Q` is recorded as 1.36 kcal/mol.
Under “binding free energy change”, `Q10C` is recorded as 0.147 kcal/mol.
For `I41E`, “binding free energy change” read 1.1 kcal/mol.
`E72C`: “binding free energy change” 0.634 kcal/mol.
`L13Q` — result for “binding free energy change”: -0.0849 kcal/mol.
`Y37R`: “binding free energy change” 0.487 kcal/mol.
